Measured values of several laboratories.
Parts stem from different laboratories: compare values within a part only.
Chain of UniProt Q9HAZ1 (whole entry, looked up): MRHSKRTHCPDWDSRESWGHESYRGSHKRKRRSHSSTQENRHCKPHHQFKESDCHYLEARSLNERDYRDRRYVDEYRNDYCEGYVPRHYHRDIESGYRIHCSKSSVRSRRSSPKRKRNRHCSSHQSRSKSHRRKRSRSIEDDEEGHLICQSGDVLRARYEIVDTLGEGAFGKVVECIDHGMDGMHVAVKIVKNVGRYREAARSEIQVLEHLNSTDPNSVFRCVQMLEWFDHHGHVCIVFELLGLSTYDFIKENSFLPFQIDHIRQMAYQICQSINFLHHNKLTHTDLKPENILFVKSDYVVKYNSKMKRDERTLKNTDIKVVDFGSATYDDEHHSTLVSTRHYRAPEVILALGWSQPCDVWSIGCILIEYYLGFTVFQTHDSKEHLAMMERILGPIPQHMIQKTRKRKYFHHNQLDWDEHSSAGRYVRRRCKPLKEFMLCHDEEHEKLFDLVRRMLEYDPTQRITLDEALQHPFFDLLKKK
Chain of UniProt Q96D53 (whole entry, looked up): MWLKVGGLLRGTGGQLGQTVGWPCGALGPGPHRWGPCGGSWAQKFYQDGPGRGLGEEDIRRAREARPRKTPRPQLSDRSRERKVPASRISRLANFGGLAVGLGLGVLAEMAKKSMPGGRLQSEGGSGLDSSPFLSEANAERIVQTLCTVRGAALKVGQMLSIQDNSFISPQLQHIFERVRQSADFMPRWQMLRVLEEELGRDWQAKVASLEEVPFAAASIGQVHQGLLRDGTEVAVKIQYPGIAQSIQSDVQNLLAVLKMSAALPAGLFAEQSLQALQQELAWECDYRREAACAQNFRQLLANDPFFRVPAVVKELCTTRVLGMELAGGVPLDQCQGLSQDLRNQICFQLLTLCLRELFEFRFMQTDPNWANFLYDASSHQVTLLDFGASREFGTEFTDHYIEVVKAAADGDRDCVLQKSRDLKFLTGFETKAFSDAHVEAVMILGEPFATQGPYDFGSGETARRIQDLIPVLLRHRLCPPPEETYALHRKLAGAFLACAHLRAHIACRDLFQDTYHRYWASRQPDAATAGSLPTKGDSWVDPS
Chain of UniProt P42680 (whole entry, looked up): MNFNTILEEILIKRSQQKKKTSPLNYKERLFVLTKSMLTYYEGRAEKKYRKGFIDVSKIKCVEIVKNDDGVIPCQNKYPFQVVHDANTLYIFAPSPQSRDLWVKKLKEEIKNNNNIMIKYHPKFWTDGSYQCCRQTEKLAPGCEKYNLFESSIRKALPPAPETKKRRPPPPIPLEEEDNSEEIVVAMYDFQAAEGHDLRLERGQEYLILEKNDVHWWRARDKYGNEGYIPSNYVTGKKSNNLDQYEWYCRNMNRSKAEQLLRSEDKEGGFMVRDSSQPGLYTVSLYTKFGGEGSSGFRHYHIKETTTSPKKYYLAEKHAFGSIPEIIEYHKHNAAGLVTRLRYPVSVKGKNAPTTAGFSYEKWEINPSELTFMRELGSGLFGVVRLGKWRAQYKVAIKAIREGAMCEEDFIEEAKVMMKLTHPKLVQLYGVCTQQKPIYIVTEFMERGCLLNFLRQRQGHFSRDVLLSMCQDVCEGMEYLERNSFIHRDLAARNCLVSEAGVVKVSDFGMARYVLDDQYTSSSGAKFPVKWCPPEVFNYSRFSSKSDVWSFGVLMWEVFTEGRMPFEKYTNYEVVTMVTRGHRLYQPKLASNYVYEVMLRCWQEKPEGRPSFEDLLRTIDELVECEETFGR
Chain of UniProt Q9BRS2 (whole entry, looked up): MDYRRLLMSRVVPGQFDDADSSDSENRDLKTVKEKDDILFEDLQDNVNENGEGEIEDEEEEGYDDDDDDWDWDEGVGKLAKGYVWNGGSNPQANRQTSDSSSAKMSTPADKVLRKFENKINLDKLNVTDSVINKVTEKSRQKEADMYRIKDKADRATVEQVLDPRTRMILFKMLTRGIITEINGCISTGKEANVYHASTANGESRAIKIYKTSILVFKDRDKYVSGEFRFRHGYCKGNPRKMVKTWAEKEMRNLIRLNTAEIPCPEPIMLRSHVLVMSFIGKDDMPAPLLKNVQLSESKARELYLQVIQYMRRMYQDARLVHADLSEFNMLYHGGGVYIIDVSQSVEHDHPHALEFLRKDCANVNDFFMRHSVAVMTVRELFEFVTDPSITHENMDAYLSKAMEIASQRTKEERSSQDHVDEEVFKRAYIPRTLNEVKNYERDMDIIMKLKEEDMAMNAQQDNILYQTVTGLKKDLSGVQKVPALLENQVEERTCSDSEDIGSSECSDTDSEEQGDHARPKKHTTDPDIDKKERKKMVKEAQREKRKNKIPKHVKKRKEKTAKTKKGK
Chain of UniProt Q9UPZ9 (whole entry, looked up): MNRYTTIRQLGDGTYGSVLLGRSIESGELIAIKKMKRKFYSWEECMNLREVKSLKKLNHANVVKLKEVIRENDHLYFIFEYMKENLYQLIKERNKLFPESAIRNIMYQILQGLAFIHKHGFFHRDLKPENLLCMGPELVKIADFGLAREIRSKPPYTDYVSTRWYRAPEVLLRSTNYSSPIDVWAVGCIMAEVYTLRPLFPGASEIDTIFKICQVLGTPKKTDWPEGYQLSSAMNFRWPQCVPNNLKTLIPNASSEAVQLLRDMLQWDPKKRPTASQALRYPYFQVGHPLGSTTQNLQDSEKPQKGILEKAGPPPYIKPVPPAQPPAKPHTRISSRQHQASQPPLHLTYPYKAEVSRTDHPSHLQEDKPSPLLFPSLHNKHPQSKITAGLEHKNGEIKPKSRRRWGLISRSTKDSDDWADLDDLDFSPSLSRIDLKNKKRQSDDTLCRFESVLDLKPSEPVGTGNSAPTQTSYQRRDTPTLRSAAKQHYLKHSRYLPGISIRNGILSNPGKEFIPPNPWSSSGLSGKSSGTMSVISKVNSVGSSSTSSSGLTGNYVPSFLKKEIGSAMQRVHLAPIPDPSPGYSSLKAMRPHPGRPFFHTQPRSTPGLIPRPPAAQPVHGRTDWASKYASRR
Chain of UniProt P41743 (whole entry, looked up): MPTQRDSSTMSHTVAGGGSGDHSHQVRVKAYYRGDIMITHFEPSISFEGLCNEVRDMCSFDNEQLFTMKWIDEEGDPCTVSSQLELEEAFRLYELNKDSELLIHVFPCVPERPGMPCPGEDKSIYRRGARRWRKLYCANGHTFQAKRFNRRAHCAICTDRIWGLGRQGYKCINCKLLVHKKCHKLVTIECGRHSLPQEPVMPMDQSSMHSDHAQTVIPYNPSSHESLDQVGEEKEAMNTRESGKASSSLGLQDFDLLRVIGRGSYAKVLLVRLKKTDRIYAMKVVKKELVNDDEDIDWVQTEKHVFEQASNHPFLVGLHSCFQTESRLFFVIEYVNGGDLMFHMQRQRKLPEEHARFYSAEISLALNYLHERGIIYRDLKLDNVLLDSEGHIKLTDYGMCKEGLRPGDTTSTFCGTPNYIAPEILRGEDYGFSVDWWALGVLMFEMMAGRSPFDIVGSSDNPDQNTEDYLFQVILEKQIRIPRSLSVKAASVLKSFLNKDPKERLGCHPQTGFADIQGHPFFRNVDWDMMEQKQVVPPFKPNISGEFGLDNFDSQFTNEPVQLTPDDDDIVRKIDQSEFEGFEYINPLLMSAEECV
Chain of UniProt Q15349 (whole entry, looked up): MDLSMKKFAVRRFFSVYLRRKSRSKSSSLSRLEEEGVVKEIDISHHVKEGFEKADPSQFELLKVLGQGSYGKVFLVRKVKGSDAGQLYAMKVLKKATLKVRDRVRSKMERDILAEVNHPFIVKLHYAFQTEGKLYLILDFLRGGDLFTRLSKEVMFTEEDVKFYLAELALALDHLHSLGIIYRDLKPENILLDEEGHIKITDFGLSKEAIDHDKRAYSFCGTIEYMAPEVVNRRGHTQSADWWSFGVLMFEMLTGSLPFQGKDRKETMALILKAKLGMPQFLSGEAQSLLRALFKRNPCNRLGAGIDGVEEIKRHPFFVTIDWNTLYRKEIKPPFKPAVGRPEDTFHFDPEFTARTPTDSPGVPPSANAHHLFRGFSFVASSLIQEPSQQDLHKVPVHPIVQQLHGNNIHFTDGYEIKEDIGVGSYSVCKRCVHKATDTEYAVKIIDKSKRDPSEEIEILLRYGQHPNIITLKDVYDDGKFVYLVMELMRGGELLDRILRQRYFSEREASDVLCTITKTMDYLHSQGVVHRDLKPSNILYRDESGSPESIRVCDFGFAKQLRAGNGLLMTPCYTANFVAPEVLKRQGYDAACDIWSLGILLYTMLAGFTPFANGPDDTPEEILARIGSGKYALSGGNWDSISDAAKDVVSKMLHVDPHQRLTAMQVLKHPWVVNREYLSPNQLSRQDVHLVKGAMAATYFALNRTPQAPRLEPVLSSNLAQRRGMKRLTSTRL

Sample 1 — cell line: HaCaT; tested at: 100 µM; time: 18 h
CCC1=C(C)CN(C(=O)NCCc2ccc(S(=O)(=O)NC(=O)N[C@H]3CC[C@H](C)CC3)cc2)C1=O has a viability of 98.5%.
The viability of CC(CCc1ccccc1)NCC(O)c1ccc(O)c(C(N)=O)c1 (centres unmarked) is reported as 113%.
The viability of OCCN1CCN(CC/C=C2/c3ccccc3Sc3ccc(C(F)(F)F)cc32)CC1 is reported as 16.9%.
Nc1nc(N)c2nc(-c3ccccc3)c(N)nc2n1 gave a viability of 65.4%.
For CCOC(=O)c1ccc(C#Cc2ccc3c(c2)C(C)(C)CCS3)nc1, the viability was 64.7%.
Nc1ccc(S(=O)(=O)Nc2nccs2)cc1 gave a viability of 77.3%.
For CC(C)[C@H](N)C(=O)OCCOCn1cnc2c(=O)[nH]c(N)nc21, the viability was 107%.

Sample 2 — organism: Sarcocystis neurona; observed: parasite growth; tested at: 10 µM; setting: first screen; reference: untreated
Under “log2 fold change”, COc1cc(N)c(Cl)cc1C(=O)NC1CCN(CCCOc2ccc(F)cc2)CC1OC.O (centres unmarked) is recorded as -0.48.
For COc1cc(C[C@@H](CO)[C@H](CO)Cc2ccc(O)c(OC)c2)ccc1O, “log2 fold change” read 0.45.
Under “log2 fold change”, Cl.NC[C@H](O)c1ccc(O)c(O)c1 is recorded as 0.32.
OC[C@H]1O[C@@H](n2cnc3c(NC4CCCC4)nc(Cl)nc32)[C@H](O)[C@@H]1O: “log2 fold change” 0.12.
Under “log2 fold change”, CC(C)c1ccc2c(c1)c(SC(C)(C)C)c(CC(C)(C)C(=O)O)n2Cc1ccc(Cl)cc1 is recorded as -0.23.

Sample 3 — mode: antagonist
Target: Beta-1 adrenergic receptor (ADRB1, Homo sapiens, UniProt P08588)
Chain of UniProt P08588 (whole entry, looked up): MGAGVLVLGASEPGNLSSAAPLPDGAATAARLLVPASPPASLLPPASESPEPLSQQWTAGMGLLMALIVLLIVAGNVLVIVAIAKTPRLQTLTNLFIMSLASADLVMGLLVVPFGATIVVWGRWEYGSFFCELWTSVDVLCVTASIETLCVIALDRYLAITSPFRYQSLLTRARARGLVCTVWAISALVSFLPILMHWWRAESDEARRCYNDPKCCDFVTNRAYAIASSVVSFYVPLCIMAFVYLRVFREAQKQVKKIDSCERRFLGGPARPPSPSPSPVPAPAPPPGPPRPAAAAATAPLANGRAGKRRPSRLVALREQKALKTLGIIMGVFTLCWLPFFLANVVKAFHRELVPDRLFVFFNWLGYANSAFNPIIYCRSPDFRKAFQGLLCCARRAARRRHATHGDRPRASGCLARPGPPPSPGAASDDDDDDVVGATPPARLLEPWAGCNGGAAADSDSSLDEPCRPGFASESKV
With COc1ccccc1N1CCC(N2CCN(CCCc3ccccc3)C(CCO)C2)CC1 (centres unmarked) the IC50 was ≥ 100 µM.
The IC50 of COc1ccccc1N1CCN(c2ncccc2CNC(C)Cn2ccnc2)CC1 (centres unmarked) is reported as ≥ 100 µM.
For CN(C)c1cccc(NC(=O)Cc2c[nH]c3ncc(-c4cnn(C)c4)cc23)c1, the IC50 was ≥ 100 µM.
CC#CCn1cc2c3c(cccc31)[C@H](CC(C)C)N[C@H](C(=O)NCCOC)C2 has an IC50 of ≥ 100 µM.
CCCCCCCCNCC(O)COc1ccc(SC(C)C)cc1 (centres unmarked) has an IC50 of ≥ 100 µM.

Sample 4 — observed: cell-free assay; technique: competition with immobilised ligand; tested at: 1 µM
SMILES: CCCCN(CCCC)C(=O)CN1C[C@H](c2cc(OC)c3c(c2)OCO3)[C@@H](C(=O)O)[C@@H]1CC(C)(C)CCC
Mitogen-activated protein kinase 4 (MAPK4, Homo sapiens, UniProt P31152) — remaining binding: 100%.
It gave 100% for remaining binding (SRSF protein kinase 2 (SRPK2, Homo sapiens, UniProt P78362)).
Serine/threonine-protein kinase ICK (CILK1, Homo sapiens, UniProt Q9UPZ9) — remaining binding: 80.2%.
The remaining binding was 100% (Receptor tyrosine-protein kinase erbB-4 (ERBB4, Homo sapiens, UniProt Q15303)).
For RAC-beta serine/threonine-protein kinase (AKT2, Homo sapiens, UniProt P31751): remaining binding read 100%.
The remaining binding was 100% (Serine/threonine-protein kinase TBK1 (TBK1, Homo sapiens, UniProt Q9UHD2)).
The remaining binding was 100% (Protein kinase C iota type (PRKCI, Homo sapiens, UniProt P41743)).
For MAP kinase-interacting serine/threonine-protein kinase 2 (MKNK2, Homo sapiens, UniProt Q9HBH9): remaining binding read 83%.
The remaining binding was 100% (Tyrosine-protein kinase Tec (TEC, Homo sapiens, UniProt P42680)).
The remaining binding was 100% (Serine/threonine-protein kinase MRCK alpha (CDC42BPA, Homo sapiens, UniProt Q5VT25)).
It gave 100% for remaining binding (Dual specificity protein kinase CLK4 (CLK4, Homo sapiens, UniProt Q9HAZ1)).
The remaining binding was 70.1% (Tyrosine-protein kinase ZAP-70 (ZAP70, Homo sapiens, UniProt P43403)).
It gave 100% for remaining binding (Ribosomal protein S6 kinase alpha-2, N-terminal kinase domain (RPS6KA2, Homo sapiens, UniProt Q15349)).
Atypical kinase COQ8B, mitochondrial (COQ8B, Homo sapiens, UniProt Q96D53) — remaining binding: 0%.
Serine/threonine-protein kinase RIO1 (RIOK1, Homo sapiens, UniProt Q9BRS2) — remaining binding: 65.8%.

Some of these lines once more (sample 3):
With COc1ccccc1N1CCC(N2CCN(CCCc3ccccc3)C(CCO)C2)CC1 (centres unmarked) the IC50 was ≥ 100 µM.
The IC50 of COc1ccccc1N1CCN(c2ncccc2CNC(C)Cn2ccnc2)CC1 (centres unmarked) is reported as ≥ 100 µM.
